Literature values that unrelated publications cite.
± marks the error that the study gave.
UniProt Q9Y6M4, sequence (whole entry, looked up): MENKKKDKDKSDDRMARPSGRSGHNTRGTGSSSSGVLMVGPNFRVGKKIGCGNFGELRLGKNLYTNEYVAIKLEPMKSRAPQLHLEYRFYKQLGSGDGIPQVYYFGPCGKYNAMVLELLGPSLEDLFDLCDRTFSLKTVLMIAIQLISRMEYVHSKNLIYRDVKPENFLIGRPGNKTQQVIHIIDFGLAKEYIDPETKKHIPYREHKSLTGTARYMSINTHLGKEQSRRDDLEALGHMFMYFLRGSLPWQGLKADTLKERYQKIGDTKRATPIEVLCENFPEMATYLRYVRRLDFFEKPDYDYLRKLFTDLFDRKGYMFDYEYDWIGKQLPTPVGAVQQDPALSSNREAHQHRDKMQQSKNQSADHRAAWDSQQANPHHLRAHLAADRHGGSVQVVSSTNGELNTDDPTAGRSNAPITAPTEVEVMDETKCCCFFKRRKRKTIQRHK

Structure (SMILES) = CCCCCC(CCC)C(=O)O (stereo not drawn); target or system = mouse D3 embryonic stem cells; assay = cell viability; setting = unbound medium concentration; measurement = IC10; value = 123 µM
Structure (SMILES) = CC1(C)S[C@@H]2[C@H](NC(=O)[C@H](N)c3ccccc3)C(=O)N2[C@H]1C(=O)O; target or system = Pseudomonas aeruginosa; test system = clinical isolate RKI-No_693/15; measurement = MIC; value = > 16 µg/mL
Structure (SMILES) = CCCC(CCC)C(=O)O; target or system = mouse D3 embryonic stem cells; assay = cell differentiation, inhibitor; setting = unbound medium concentration; measurement = IC10; value = 189 µM
Structure (SMILES) = CC(=O)O[C@H]1C(=O)[C@@]2(C)[C@H]([C@H](OC(=O)c3ccccc3)[C@]3(O)C[C@H](OC(=O)[C@H](O)[C@@H](NC(=O)c4ccccc4)c4ccccc4)C(C)=C1C3(C)C)[C@]1(OC(C)=O)CO[C@@H]1C[C@@H]2O; target or system = MCF7; assay = cytotoxicity; measurement = IC50; value = 0.0009 µM
Structure (SMILES) = CNC(C)C1CCC(N)C(OC2C(N)CC(N)C(OC3OCC(C)(O)C(NC)C3O)C2O)O1 (stereo not drawn); target or system = Pseudomonas aeruginosa; test system = clinical isolate RKI-No_216/16; measurement = MIC; value = ≤ 0.5 µg/mL
Structure (SMILES) = O=c1cc(-c2ccccc2)oc2cc(O)c(O)c(O)c12; target or system = Vero; measurement = CC50; value = 291 µg/mL
Structure (SMILES) = Nc1cc(C(F)(F)F)c(-c2nc(N3CCOCC3)nc(N3CCOCC3)n2)cn1; target or system = CSNK1G3 (Homo sapiens, UniProt Q9Y6M4); assay = enzyme activity; setting = 10 µM; how to read = reference: untreated; measurement = remaining activity; value = 100%
Structure (SMILES) = COc1c(Br)cccc1C(=O)Nc1ccc(Sc2nc3ccccc3s2)cc1; target or system = HEK293; measurement = CC50; value = > 100 µM
Structure (SMILES) = COc1ccccc1Oc1cccc(CN2CCC(NC(=O)C(CCN3CCCC3)c3ccccc3)CC2)c1 (stereo not drawn); target or system = human CCR8 S110W mutant (TM3); assay = IP accumulation, agonist; measurement = EC50; value = > 10 µM
Structure (SMILES) = C[C@H]1COCCN1c1nc(-c2cnc(N)cc2C(F)F)nc(N2CCOCC2)n1; target or system = TT; measurement = GI50; value = 0.576 µM
Structure (SMILES) = CCCCCCc1ccc(C(=O)CCN(CCCC)CCCC)cc1; target or system = several cell lines; setting = 150 µM; measurement = viability; value = < 5%
Structure (SMILES) = O=C1Oc2ccc3ccccc3c2C1c1c[nH]c2ccccc12 (stereo not drawn); target or system = COLO 205 colon adenocarcinoma; setting = concentration not given; measurement = cytotoxicity; value = no effect
Structure (SMILES) = C=CCC(CCC)C(=O)O (stereo not drawn); target or system = mouse D3 embryonic stem cells; assay = cell viability; setting = unbound medium concentration; measurement = IC10; value = 222 µM
Structure (SMILES) = O=C(c1ccc(Cl)cc1)N(Cc1ccccc1)C1CCCCC1; target or system = HUVEC; assay = cell viability; measurement = highest non-toxic concentration; value = ≤ 1 nM
Structure (SMILES) = CC(C)C[C@@H](C(=O)N[C@H](C(=O)OC1CCCC1)c1ccccc1)[C@H](O)C(=O)NO; target or system = Vero; assay = MTT; measurement = CC50; value = 12.7 ± 3.2 µM
Structure (SMILES) = COC(=O)N[C@@H](C)CNc1nccc(-c2cn(C(C)C)nc2-c2cc(Cl)cc(NS(C)(=O)=O)c2F)n1; target or system = human primary hepatocytes; assay = inducer; setting = concentration not given; measurement = CYP3A4 induction; value = increased
Structure (SMILES) = CCCC(C)C(=O)O (stereo not drawn); target or system = mouse D3 embryonic stem cells; assay = cell viability; setting = unbound medium concentration; measurement = IC10; value = 2600 µM
Structure (SMILES) = CC(C)C[C@H](NC(=O)[C@@H](O)[C@H](N)Cc1ccccc1)C(=O)O; target or system = Vero; assay = MTT; measurement = CC50; value = 25 ± 4.1 µM
Structure (SMILES) = Nc1ccccc1NC(=O)c1ccc(CNC(=O)OCc2cccnc2)cc1; target or system = HEK293; assay = cell viability, MTT; measurement = IC50; value = 7.11 ± 1.06 µM
Structure (SMILES) = C=CCCC(=O)O; target or system = human neural embryonic cells; assay = cell viability; setting = unbound medium concentration; measurement = EC10; value = 1710 µM
Structure (SMILES) = CNCc1cc(-c2ccccc2F)n(S(=O)(=O)c2cccnc2)c1; test system = human; setting = 40 mg, single dose, fed, CYP3A victim drug; measurement = AUC(0-inf); value = 411 ng·h/mL

Repeated from above:
Structure (SMILES) = C=CCCC(=O)O; target or system = human neural embryonic cells; assay = cell viability; setting = unbound medium concentration; measurement = EC10; value = 1710 µM
Structure (SMILES) = CNCc1cc(-c2ccccc2F)n(S(=O)(=O)c2cccnc2)c1; test system = human; setting = 40 mg, single dose, fed, CYP3A victim drug; measurement = AUC(0-inf); value = 411 ng·h/mL
